Measurements from different studies.
A part holds a random share of what one study measured.
Chain of UniProt P41143 (whole entry, looked up): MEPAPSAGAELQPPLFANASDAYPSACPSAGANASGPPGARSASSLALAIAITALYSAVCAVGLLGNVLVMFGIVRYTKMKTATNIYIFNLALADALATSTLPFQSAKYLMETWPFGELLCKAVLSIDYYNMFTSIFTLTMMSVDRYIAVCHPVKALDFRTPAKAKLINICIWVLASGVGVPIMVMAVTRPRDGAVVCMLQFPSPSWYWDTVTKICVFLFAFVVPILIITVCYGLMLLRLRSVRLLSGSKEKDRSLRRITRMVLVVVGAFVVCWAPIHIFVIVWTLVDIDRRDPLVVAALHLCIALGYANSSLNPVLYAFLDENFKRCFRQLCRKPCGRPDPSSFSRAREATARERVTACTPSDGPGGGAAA
Chain of UniProt P35372 (whole entry, looked up): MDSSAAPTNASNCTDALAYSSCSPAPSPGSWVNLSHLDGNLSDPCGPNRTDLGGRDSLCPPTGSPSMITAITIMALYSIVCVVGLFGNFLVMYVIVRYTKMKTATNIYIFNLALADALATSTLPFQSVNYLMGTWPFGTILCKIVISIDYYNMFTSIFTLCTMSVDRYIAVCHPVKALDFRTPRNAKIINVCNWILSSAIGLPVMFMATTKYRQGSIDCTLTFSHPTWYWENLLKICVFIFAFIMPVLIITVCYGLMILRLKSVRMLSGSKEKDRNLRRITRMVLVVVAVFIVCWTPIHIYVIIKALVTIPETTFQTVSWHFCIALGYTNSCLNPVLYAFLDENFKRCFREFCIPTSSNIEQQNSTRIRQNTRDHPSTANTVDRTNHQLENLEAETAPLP
Chain of UniProt P07711 (whole entry, looked up): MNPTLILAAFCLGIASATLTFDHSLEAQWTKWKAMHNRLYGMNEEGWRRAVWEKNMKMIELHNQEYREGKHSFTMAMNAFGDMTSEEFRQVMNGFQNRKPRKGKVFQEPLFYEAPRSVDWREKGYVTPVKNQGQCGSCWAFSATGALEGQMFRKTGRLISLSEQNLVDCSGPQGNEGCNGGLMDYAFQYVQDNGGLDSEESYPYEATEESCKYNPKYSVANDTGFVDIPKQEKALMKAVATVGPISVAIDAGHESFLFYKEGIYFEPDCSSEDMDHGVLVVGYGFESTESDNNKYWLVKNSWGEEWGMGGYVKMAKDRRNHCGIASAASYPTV
Chain of UniProt O60911 (whole entry, looked up): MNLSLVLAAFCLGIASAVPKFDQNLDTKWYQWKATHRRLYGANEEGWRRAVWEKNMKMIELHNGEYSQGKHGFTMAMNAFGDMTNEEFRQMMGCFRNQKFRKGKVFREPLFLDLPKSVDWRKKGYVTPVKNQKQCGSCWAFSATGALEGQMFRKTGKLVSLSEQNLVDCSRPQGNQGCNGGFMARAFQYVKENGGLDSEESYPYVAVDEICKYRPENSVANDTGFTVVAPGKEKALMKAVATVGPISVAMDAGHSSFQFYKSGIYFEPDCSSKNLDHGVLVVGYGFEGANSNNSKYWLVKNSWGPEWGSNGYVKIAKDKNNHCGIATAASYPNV
Chain of UniProt P00784 (whole entry, looked up): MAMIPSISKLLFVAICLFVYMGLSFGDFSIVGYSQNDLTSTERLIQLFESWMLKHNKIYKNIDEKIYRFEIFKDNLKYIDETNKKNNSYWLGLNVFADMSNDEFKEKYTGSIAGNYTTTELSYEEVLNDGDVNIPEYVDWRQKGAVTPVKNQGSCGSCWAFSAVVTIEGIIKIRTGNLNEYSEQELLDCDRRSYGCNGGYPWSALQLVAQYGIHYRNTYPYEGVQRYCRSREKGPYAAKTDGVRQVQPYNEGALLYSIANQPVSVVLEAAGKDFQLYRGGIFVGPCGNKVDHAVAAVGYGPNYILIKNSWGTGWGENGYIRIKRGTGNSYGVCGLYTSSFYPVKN
Chain of UniProt P53634 (whole entry, looked up): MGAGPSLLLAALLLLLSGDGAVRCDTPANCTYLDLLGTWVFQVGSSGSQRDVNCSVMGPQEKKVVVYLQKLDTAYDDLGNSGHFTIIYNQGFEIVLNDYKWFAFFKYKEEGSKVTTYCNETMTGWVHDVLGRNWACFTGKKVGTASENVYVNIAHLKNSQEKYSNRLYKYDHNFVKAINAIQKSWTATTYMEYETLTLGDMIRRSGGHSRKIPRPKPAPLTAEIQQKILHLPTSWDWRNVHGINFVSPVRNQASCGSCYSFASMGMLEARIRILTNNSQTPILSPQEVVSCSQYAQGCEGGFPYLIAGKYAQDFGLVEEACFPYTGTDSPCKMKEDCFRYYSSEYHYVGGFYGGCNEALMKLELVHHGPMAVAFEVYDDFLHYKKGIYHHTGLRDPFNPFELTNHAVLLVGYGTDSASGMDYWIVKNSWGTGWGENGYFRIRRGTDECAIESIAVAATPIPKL
Chain of UniProt P07384 (whole entry, looked up): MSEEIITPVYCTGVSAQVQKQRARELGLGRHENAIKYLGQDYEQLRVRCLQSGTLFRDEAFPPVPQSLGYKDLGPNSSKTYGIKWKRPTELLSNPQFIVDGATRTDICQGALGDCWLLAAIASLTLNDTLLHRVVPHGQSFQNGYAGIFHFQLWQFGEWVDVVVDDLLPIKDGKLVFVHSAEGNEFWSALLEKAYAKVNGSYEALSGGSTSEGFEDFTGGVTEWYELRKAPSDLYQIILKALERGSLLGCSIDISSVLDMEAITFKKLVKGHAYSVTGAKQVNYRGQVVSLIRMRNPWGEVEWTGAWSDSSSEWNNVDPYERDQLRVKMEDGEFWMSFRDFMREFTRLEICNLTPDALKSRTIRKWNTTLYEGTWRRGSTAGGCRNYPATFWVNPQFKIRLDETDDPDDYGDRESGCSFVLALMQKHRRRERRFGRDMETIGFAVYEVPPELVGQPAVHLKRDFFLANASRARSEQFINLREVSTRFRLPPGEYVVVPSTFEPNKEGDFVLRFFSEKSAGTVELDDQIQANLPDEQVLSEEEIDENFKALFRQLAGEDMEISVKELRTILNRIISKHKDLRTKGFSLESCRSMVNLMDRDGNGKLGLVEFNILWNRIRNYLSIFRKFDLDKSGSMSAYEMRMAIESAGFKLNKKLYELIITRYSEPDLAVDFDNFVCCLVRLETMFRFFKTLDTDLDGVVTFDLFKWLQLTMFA
Chain of UniProt P41145 (whole entry, looked up): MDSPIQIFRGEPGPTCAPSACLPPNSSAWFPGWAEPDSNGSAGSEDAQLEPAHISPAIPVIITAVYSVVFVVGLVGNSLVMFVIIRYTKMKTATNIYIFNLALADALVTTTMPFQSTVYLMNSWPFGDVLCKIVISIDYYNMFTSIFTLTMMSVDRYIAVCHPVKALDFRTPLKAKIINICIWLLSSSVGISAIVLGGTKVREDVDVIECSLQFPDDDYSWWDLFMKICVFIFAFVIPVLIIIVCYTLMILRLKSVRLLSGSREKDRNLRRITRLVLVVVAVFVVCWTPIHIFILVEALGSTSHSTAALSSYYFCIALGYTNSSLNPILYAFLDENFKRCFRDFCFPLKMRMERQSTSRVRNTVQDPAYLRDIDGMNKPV
Chain of UniProt P20309 (whole entry, looked up): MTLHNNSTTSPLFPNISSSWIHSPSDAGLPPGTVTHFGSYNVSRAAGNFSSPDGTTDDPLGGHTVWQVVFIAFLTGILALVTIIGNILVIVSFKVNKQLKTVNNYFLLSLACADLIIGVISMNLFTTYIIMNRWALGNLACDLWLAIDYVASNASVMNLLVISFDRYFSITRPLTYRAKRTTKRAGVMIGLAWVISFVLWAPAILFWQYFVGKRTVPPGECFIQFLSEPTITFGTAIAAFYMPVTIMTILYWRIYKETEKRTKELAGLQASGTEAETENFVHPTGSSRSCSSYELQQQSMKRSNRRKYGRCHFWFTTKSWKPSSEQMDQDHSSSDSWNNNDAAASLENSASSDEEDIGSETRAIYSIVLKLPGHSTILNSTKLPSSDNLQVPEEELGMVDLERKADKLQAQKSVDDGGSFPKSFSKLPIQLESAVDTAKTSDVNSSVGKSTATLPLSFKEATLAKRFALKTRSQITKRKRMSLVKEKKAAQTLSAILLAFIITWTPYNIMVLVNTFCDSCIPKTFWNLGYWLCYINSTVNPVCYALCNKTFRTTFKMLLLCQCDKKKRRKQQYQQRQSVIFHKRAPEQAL
Chain of UniProt P11229 (whole entry, looked up): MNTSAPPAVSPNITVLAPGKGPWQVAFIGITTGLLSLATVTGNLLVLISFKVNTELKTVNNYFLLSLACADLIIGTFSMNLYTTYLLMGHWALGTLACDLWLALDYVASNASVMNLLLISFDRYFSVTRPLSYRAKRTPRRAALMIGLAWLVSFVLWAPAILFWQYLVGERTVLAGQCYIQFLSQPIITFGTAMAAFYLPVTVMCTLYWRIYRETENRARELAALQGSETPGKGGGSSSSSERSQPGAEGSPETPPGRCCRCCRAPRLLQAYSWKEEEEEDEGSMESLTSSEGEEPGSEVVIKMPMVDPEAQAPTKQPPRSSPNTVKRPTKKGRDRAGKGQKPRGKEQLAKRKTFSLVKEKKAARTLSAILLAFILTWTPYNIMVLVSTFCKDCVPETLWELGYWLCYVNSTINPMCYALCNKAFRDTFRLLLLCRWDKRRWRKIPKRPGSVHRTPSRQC
Chain of UniProt P09668 (whole entry, looked up): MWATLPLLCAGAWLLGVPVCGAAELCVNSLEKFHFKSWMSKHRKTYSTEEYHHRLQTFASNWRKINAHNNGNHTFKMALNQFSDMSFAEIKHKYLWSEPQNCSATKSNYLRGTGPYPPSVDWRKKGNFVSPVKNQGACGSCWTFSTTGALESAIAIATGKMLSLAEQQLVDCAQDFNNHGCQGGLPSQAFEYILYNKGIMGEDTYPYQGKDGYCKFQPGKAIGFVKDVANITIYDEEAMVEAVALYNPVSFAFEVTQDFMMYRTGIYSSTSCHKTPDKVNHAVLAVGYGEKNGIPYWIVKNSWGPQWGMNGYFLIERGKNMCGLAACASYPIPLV

Set 1
Cell line: HEK-293T
Organism: VSV pseudotyped with VSV-G
Tested at: 10 µM
Time: 16 h
SMILES	pseudovirus infection [%]
CN(C)C(=O)C(CCN1CCC(O)(c2ccc(Cl)cc2)CC1)(c1ccccc1)c1ccccc1	117
CN(C)C(=N)N=C(N)N	97.9
Cc1cccc(C)c1OCC(C)N (centres unmarked)	86
Nc1nc(=O)n([C@@H]2CS[C@H](CO)O2)cc1F	132
COc1cc(Cc2cnc(N)nc2N)cc(OC)c1OC	100
CN(C)CCC=C1c2ccccc2COc2ccccc21	89.3
Cc1ncc(C[n+]2csc(CCO)c2C)c(N)n1	88.5
O=C(O)COCCN1CCN([C@H](c2ccccc2)c2ccc(Cl)cc2)CC1	87.7
OCCOc1ccc(/C(=C(/CCCl)c2ccccc2)c2ccccc2)cc1	98.6
CN(C/C=C/c1ccccc1)Cc1cccc2ccccc12	103
CCN(CC)CCOC(=O)C1(C2CCCCC2)CCCCC1	77
C[C@@H]1C[C@H]2[C@@H]3C[C@H](F)C4=CC(=O)C=C[C@]4(C)[C@@]3(F)[C@@H](O)C[C@]2(C)[C@@]1(O)C(=O)CO	116
Cc1ccccc1C(OCCN(C)C)c1ccccc1 (centres unmarked)	111
Nc1nc2ccc(OC(F)(F)F)cc2s1	91.2
CC(C)NCC(O)COc1ccc(CC(N)=O)cc1 (centres unmarked)	118

Set 2
SMILES: NS(=O)(=O)c1cc(NC(=O)C2(c3ccccc3Cl)CC2)ccc1Oc1cccc(Cl)c1
Observed: cell-free assay
Tested at: 10 µM
target	inhibition [%]
OPRD1 (Homo sapiens, UniProt P41143)	41.6
HTR2A (Homo sapiens, UniProt P28223)	11.3
OPRK1 (Homo sapiens, UniProt P41145)	21.2
CHRM3 (Homo sapiens, UniProt P20309)	17.9
DRD5 (Homo sapiens, UniProt P21918)	20.8
OPRM1 (Homo sapiens, UniProt P35372)	40.2
CHRM1 (Homo sapiens, UniProt P11229)	-3.55

Set 3
Cell line: mouse MPNST tumor cells
Technique: high-content immunofluorescence imaging
Item: nuclear SOX9
Tested at: 10 µM
Time: 12 h
Notes: mean of 2 replicates
Baseline: DMSO control
Reading: higher = more nuclear SOX9
SMILES	nuclear SOX9 intensity
N#Cc1cn([C@@H]2O[C@H](CO)[C@@H](O)[C@H]2O)c2ncnc(N)c12	59.1 % of DMSO
C[C@@]12N[C@@H](Cc3ccccc31)c1ccccc12	102 % of DMSO
Nc1ccc(Oc2ccc(C(c3ccc(Oc4ccc(N)cc4)cc3)(C(F)(F)F)C(F)(F)F)cc2)cc1	150 % of DMSO
NC(=O)C[S+]([O-])C(c1ccccc1)c1ccccc1 (centres unmarked)	109 % of DMSO
CO[C@]12C[C@@H](COC(=O)c3cncc(Br)c3)CN(C)[C@@H]1Cc1cn(C)c3cccc2c13	130 % of DMSO

Set 4
SMILES: CC(C)C[C@H](NC(=O)[C@H]1O[C@@H]1C(=O)O)C(=O)NCCCCN=C(N)N
target	IC50
Cathepsin S (CTSS, Homo sapiens, UniProt P25774)	3.25 nM
Pro-cathepsin H (Homo sapiens, UniProt P09668)	76.3 nM
Cathepsin B (CTSB, Homo sapiens, UniProt P07858)	9.07 nM
CAPN1 (Homo sapiens, UniProt P07384)	16.4 nM
Procathepsin L (CTSL, Homo sapiens, UniProt P07711)	12.6 nM
CTSC (Homo sapiens, UniProt P53634)	563 nM
Cathepsin L2 (CTSV, Homo sapiens, UniProt O60911)	9.17 nM
Papain (Carica papaya, UniProt P00784)	0.434 nM

A few entries again (set 4):
target	IC50
Cathepsin S (CTSS, Homo sapiens, UniProt P25774)	3.25 nM
CTSC (Homo sapiens, UniProt P53634)	563 nM
Papain (Carica papaya, UniProt P00784)	0.434 nM
